Measured values of several laboratories.
“And” joins repeats or separate records; there may be more than shown. ± marks the error that the study gave.
Nicotinic acetylcholine receptor alpha1/beta1/epsilon/delta: Nicotinic acetylcholine receptor alpha1/beta1/epsilon/delta (Mus musculus, UniProt P02716+P04756+P09690+P20782)
Sequence of UniProt P27361 (whole entry, looked up): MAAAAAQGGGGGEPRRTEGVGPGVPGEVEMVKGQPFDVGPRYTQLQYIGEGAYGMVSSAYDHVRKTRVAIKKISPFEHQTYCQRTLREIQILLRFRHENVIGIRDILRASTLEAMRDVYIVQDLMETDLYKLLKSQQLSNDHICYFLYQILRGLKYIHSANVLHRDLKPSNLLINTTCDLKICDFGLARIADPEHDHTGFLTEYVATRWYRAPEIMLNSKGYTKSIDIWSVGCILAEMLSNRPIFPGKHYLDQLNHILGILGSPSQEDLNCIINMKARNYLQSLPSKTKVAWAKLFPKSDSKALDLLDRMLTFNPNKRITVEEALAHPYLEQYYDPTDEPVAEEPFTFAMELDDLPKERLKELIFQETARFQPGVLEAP
Sequence of UniProt P42866 (whole entry, looked up): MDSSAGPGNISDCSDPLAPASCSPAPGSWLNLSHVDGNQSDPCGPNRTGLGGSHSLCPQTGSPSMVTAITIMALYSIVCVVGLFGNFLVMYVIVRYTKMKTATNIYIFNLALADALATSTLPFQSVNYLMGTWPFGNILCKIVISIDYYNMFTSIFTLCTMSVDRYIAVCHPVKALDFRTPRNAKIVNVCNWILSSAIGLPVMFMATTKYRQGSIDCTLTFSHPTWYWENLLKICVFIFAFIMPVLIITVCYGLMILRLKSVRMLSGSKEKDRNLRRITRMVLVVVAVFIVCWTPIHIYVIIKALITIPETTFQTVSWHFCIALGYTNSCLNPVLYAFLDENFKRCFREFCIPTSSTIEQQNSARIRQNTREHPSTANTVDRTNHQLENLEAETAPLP
Sequence of UniProt Q62351 (whole entry, looked up): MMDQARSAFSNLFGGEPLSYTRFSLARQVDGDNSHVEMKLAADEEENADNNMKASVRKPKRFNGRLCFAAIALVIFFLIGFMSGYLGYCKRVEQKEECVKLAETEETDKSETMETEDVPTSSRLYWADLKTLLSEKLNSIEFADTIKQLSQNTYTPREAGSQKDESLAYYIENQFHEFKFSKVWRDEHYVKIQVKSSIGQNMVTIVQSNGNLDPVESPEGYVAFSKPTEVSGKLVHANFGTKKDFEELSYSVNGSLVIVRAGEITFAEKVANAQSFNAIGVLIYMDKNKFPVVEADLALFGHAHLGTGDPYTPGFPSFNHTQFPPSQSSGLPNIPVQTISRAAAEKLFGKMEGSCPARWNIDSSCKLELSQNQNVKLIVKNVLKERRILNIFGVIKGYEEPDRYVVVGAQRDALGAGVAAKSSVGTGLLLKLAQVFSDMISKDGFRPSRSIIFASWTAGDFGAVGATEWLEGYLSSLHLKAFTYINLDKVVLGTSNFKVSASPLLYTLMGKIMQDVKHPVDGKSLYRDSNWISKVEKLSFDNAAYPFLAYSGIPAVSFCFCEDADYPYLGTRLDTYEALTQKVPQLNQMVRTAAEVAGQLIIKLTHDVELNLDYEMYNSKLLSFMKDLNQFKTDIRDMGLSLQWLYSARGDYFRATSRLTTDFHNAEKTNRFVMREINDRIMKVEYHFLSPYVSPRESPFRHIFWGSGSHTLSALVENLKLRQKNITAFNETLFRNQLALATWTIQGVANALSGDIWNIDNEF
Sequence of UniProt P20782 (whole entry, looked up): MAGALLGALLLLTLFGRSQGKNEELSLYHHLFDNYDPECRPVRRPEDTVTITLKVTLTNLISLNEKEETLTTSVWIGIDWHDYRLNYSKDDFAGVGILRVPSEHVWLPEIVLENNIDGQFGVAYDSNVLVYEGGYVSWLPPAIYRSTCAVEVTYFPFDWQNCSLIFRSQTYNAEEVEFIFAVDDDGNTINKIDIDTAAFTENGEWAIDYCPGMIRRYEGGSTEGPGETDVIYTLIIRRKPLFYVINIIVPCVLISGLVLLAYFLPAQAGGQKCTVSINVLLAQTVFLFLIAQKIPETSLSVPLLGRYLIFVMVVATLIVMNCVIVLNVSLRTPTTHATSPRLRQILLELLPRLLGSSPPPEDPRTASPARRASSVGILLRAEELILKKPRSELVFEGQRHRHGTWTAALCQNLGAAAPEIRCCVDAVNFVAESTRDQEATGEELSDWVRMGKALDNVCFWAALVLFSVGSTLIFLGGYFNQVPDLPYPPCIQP
Sequence of UniProt P09690 (whole entry, looked up): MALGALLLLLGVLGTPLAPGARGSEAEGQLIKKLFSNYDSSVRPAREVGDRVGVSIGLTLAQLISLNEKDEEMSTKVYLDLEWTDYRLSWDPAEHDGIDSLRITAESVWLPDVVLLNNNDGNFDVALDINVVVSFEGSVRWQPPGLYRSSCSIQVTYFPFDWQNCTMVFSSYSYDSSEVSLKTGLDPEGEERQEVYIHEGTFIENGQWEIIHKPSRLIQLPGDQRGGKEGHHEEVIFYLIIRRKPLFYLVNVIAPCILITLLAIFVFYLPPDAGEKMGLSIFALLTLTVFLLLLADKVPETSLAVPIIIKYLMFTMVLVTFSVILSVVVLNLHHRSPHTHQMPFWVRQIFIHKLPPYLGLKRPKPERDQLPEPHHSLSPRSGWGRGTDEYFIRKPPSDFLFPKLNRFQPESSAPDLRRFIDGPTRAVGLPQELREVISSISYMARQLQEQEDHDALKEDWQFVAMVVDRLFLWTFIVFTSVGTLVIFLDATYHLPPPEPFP
Sequence of UniProt P04756 (whole entry, looked up): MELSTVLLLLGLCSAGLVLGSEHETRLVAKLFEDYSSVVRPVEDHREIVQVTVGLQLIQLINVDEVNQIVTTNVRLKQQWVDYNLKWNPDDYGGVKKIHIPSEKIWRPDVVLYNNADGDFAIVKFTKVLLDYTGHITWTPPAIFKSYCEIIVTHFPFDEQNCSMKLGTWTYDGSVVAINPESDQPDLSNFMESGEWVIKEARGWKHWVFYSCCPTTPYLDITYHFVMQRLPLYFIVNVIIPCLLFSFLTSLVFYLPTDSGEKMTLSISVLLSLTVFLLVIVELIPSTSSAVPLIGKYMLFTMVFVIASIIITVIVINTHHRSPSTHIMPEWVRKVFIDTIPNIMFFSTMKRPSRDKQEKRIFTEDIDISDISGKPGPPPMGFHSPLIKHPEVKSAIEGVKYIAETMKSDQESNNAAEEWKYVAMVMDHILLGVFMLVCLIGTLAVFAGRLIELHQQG
Sequence of UniProt P02716 (whole entry, looked up): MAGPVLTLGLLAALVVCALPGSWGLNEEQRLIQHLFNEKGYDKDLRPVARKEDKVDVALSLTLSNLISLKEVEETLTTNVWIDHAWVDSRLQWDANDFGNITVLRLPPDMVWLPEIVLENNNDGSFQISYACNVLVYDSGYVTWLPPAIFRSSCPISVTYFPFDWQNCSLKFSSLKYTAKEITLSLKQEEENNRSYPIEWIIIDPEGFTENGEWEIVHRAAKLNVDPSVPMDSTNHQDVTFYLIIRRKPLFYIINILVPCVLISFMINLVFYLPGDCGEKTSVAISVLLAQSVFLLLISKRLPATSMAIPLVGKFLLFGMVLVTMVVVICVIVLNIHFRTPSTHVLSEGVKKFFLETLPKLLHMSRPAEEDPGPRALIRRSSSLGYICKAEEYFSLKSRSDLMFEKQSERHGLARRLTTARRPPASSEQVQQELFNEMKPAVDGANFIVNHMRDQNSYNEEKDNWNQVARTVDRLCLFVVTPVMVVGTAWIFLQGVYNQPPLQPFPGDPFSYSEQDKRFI
Sequence of UniProt Q9UJ42 (whole entry, looked up): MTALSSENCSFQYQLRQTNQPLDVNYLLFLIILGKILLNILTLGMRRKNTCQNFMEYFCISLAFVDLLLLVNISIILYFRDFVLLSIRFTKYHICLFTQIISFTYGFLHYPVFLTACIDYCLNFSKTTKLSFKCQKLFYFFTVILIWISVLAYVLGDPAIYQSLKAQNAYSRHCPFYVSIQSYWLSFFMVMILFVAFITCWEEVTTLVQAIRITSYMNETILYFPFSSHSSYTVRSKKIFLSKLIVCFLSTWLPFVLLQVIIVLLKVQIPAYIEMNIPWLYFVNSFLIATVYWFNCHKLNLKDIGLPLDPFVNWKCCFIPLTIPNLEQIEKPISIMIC
Sequence of UniProt Q6PIU2 (whole entry, looked up): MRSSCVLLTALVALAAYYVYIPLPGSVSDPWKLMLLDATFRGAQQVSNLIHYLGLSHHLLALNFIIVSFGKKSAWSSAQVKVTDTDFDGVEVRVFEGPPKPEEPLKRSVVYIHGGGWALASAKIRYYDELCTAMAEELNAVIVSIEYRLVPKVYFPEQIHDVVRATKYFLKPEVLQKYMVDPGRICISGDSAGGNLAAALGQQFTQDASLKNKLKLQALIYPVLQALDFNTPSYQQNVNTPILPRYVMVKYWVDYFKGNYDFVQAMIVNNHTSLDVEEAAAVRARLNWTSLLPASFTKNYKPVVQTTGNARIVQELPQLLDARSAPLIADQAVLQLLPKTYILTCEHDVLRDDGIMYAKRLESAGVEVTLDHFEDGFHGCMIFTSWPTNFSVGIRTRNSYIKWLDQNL
Sequence of UniProt P63208 (whole entry, looked up): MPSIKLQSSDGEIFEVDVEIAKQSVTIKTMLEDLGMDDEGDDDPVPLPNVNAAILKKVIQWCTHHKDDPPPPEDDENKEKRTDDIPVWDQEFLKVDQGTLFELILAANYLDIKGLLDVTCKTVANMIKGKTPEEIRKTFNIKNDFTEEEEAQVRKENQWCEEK
Sequence of UniProt P10959 (whole entry, looked up): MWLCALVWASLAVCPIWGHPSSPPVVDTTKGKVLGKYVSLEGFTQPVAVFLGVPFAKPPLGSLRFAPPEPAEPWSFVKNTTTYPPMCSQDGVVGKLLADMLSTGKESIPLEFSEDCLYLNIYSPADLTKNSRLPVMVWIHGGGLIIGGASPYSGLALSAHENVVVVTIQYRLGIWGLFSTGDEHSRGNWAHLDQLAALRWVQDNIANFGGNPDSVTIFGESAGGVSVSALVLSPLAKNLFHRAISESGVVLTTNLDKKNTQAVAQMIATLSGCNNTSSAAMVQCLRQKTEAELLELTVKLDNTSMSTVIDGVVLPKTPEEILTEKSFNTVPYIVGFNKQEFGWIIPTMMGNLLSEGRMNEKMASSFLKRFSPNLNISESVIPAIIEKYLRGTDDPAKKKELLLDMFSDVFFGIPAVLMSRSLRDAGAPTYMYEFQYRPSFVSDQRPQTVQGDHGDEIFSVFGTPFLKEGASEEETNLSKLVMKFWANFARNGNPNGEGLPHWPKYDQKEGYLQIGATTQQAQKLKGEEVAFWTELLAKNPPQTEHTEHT

With `CCOC(=O)CC(CC(=O)OCC)(OC(C)=O)C(=O)OCC` the fold change was 10.8 (S-phase kinase-associated protein 1 (SKP1, Homo sapiens, UniProt P63208); binding, affinity selection mass spectrometry; 100 nM, pooled screen; relative to: other proteins).
For `COC(=O)[C@@]1(O)C[C@H]2O[C@]1(C)n1c3ccccc3c3c4c(c5c6ccccc6n2c5c31)C(=O)NC4`, the kinase activity was 117% and 99% and 96.1% (MAPK3 (Homo sapiens, UniProt P27361); ADP-Glo; 17.2 µM, added: MBP substrate).
`Nc1ncc(-c2nc(N3CCOCC3)nc(N3CCOCC3)n2)c(C(F)F)n1` gave a remaining binding of 100% (TGFBR1 (Homo sapiens, UniProt P36897); KINOMEscan; 10 µM).
`O=C(Nc1cccnn1)N1CCC(=Cc2cccc(Oc3ccc(C(F)(F)F)cn3)c2)CC1` gave an inhibition of -7% (AMPA receptor, rat; binding; 10 µM, added: [3H]AMPA).
With `O=c1oc(-c2cccc(F)c2)ns1` the kobs/[I] was 31.3 M⁻¹ s⁻¹ (PSMB5 (Homo sapiens, UniProt P28074); enzyme inactivation, inhibitor; human PA28-activated proteasome).
`COc1ccc(C(=O)CCl)c2c1C(=O)CO2` has a labelling of 16.1% (UCHL1 (Homo sapiens, UniProt P09936); covalent, intact protein LC-MS; 12.5 µM).
The −TΔS of `CC(=O)N[C@H](C(=O)N1C[C@H](O)C[C@H]1C(=O)NCc1ccc(-c2scnc2C)cc1)C(C)(C)SCCCCCCNC(=O)C[C@@H]1N=C(c2ccc(Cl)cc2)c2c(sc(C)c2C)-n2c(C)nnc21` is reported as 0.8 ± 0.9 kcal/mol (Bromodomain-containing protein 4, BD2 (BRD4, Homo sapiens, UniProt O60885, A384K/E383V/K378Q); ITC; 25 °C, BD2 mutant, binary).
For `CN1CCN(c2cc(-c3ccncc3)c(-c3ccc4ccccc4c3)nn2)CC1`, the activation was -4% (AVPR1A (Homo sapiens, UniProt P37288); agonist, FLIPR; 12.5 µM).
`O=C(O)C(F)(OC(F)(F)C(F)(F)C(F)(F)F)C(F)(F)F` (centres unmarked) has a ΔS of 0.015 kcal/mol/K (Albumin (ALB, Homo sapiens, UniProt P02768); ITC; 25 °C).
`C[C@H]1CN(c2n[nH]c3nc(N[C@H]4CC[C@H](NS(=O)(=O)CCC(F)(F)F)CC4)ncc23)CCO1` has a remaining binding of 1.22 (CTP synthase 1 (Homo sapiens, UniProt P17812); Kinobeads competition, item: CTPS; 20 µM, unit not given; relative to: vehicle).
For `CCCCOP(=O)(O)C(C)=O`, “Ki fold change” read 10 fold (dxs (Escherichia coli, UniProt P77488, R99A); concentration not given, variant enzyme; relative to: wild type).
`COc1ccc(F)cc1C(=O)NCc1ccc(-c2nn([C@@H](C)C(F)(F)F)c(N)c2C(N)=O)cc1` gave a residence time of 105 min (Tyrosine-protein kinase BTK, non-phosphorylated (BTK, Homo sapiens, UniProt Q06187); binding).
For `CC[N+]1(CC)CCN(c2ccc(C)cc2)CC1`, the ACh response was 0.639 ± 0.271 (Nicotinic acetylcholine receptor alpha1/beta1/epsilon/delta; ion current, inhibitor, two-electrode voltage clamp; Xenopus oocytes; 30 µM, after co-application, unit not given, added: ACh 30 µM; relative to: ACh alone).
For `O=C(Nc1cnccc1Cl)N1CCN(Cc2ccc3c(c2)OC(F)(F)O3)CC1`, the inhibition was 4% (HIPK2 (Homo sapiens, UniProt Q9H2X6); kinase activity, inhibitor; 50 µM, added: myelin basic protein substrate).
For `NCCCCNCCCN`, the Km was 590 ± 30.8 µM (speG (Escherichia coli, UniProt P0A951); substrate, spectrophotometric kinetics; cooperative kinetics).
With `CN(C(=O)n1cnc(-c2ccc[n+]([O-])c2)c1)C1CCCCC1` the inhibition was -8% (CALCRL (Homo sapiens, UniProt Q16602); radioligand binding; 50 µM).
For `CC(=O)NC[C@H]1[C@H](O)[C@H](O)[C@@H]2[C@H](O)C[C@@H](CO)N21`, the inhibition was 64.5% (human placental β-N-acetylglucosaminidase; 0.01288 µM, run 2, added: p-nitrophenyl GlcNAc).
With `COc1cc(Nc2ncc(F)c(Nc3ccc4c(n3)NC(=O)C(C)(C)O4)n2)cc(OC)c1OC` the inhibition was 95% (STK36 (Homo sapiens, UniProt Q9NRP7); KINOMEscan; 10 µM).
For `COc1ccc(N2C(=O)N(c3c(C)cccc3Cl)Cc3cnc(Nc4ccc(C5CCN(C)CC5)cc4OC)nc32)nc1`, the inhibition was 76% (CSK (Homo sapiens, UniProt P41240); kinase activity; 0.5 µM).
Under “log2 fold change”, `COc1cc(N)c(Cl)cc1C(=O)NC1CN2CCC1CC2` (centres unmarked) is recorded as 0.113 (Probable G-protein coupled receptor 160 (GPR160, Homo sapiens, UniProt Q9UJ42); β-arrestin recruitment, TANGO luminescence, item: GPR160; concentration not given; relative to: basal luminescence).
With `O=C(c1ccc(Cl)cc1)N1CCN2C(=O)N(OC(=O)N3CCOc4ccccc43)C(=O)C2C1` (centres unmarked) the median ratio was 0.94 (NCEH1 (Homo sapiens, UniProt Q6PIU2); enzyme activity, inhibitor, MS-based ABPP; SW-620 conditioned medium; 10 µM, 1 h, 37 °C; relative to: compound over DMSO, lower = stronger inhibition).
For `CC[C@@H](C)[C@@H](NC(=O)[C@@H](Cc1ccc(O)cc1)NC(=O)[C@H]1CCCN1C(=O)[C@@H](CCCNC(=N)N)NC(=O)[C@H](N)Cc1c[nH]cn1)C(=O)N[C@H](C)C(=O)N[C@H](Cc1c[nH]cn1)C(=O)N[C@H](CCCNC(=N)N)C(=O)N[C@H](CCCCNC(=O)c1cccc(S(=O)(=O)F)c1)C(=O)N[C@H](Cc1ccc(O)cc1)C(=O)N[C@H](CO)C(=O)N[C@H](Cc1ccccc1)C(N)=O`, the surface expression was 0.404 and 0.454 (Transferrin receptor protein 1 (Tfrc, Mus musculus, UniProt Q62351); flow cytometry; B16; 48 h, unit not given; relative to: 0 h).
For `CC[N+]1(C)CCN(c2cccc(C(F)(F)F)c2)CC1.[I-]`, the ACh response was 0.516 ± 0.128 (Nicotinic acetylcholine receptor alpha1/beta1/epsilon/delta; ion current, inhibitor, two-electrode voltage clamp; Xenopus oocytes; 30 µM, after co-application, unit not given, added: ACh 30 µM; relative to: ACh alone).
With `[2H]c1c([2H])c([C@]2([2H])CCCN2C(=O)C(C)(C)Oc2ccc3cn[nH]c3c2)c([2H])c([2H])c1C([2H])([2H])[2H]` the remaining binding was 83% (DDR2 (Homo sapiens, UniProt Q16832); KINOMEscan; 1 µM; relative to: DMSO control).
`CN(C(=O)n1cnc(-c2ccc[n+]([O-])c2)c1)C1CCCCC1` gave a fold change of -15 (Carboxylesterase 1C (Ces1c, Rattus norvegicus, UniProt P10959); enzyme activity, ABPP; rat, brain; oral, 100 mg/kg/day, 7 days; relative to: vehicle).
For `Cc1ncsc1-c1ccc([C@H](CC(=O)N2CCN(c3ccc(C#Cc4ccc(C(=O)N5CCC(n6cc(-c7ccc8c(c7)CCN8C(=O)Cc7cccc(OC(F)(F)F)c7)c7c(N)ncnc76)CC5)cc4)cn3)CC2)NC(=O)[C@@H]2C[C@@H](O)CN2C(=O)[C@@H](NC(=O)C2(F)CC2)C(C)(C)C)cc1`, the protein reduction was > 70% (RIPK1 (Homo sapiens, UniProt Q13546); degrader; nude mice, Jurkat xenograft, tumour; intravenous, 10 mg/kg, 6 h, single dose).
With `C[N+](C)(C)CCOP(=O)(O)O` the thermal shift was 2.29 °C (Uncharacterized protein (Pelagibacter ubique, UniProt Q4FM26); differential scanning fluorimetry; Candidatus Pelagibacter ubique; in-house screen).
With `C[C@@H](NC(=O)[C@@H](N)Cc1ccc(O)cc1)C(=O)NCC(=O)N(C)[C@@H](Cc1ccccc1)C(=O)NCCO` the GTPγS binding was -0.57% and 1.56% and -3.94% and 1.53% (Oprm1 (Mus musculus, UniProt P42866); agonist; mouse spinal cord membranes; 178 nM; relative to: basal binding).
`Clc1ccc(COc2ccccc2CNCc2cccnc2)cc1`: “highest concentration without inhibition” > 200 µM (Aminoglycoside N(3)-acetyltransferase IV (aacC4, Salmonella sp, UniProt P08988); neomycin acetylation, inhibitor; added: neomycin).

Repeated from above:
`O=C(O)C(F)(OC(F)(F)C(F)(F)C(F)(F)F)C(F)(F)F` (centres unmarked) has a ΔS of 0.015 kcal/mol/K (Albumin (ALB, Homo sapiens, UniProt P02768); ITC; 25 °C).
`C[C@H]1CN(c2n[nH]c3nc(N[C@H]4CC[C@H](NS(=O)(=O)CCC(F)(F)F)CC4)ncc23)CCO1` has a remaining binding of 1.22 (CTP synthase 1 (Homo sapiens, UniProt P17812); Kinobeads competition, item: CTPS; 20 µM, unit not given; relative to: vehicle).
For `CCCCOP(=O)(O)C(C)=O`, “Ki fold change” read 10 fold (dxs (Escherichia coli, UniProt P77488, R99A); concentration not given, variant enzyme; relative to: wild type).
`COc1ccc(F)cc1C(=O)NCc1ccc(-c2nn([C@@H](C)C(F)(F)F)c(N)c2C(N)=O)cc1` gave a residence time of 105 min (Tyrosine-protein kinase BTK, non-phosphorylated (BTK, Homo sapiens, UniProt Q06187); binding).
